Results gathered from unrelated publications.

SMILES	test	test system	conditions	t1/2 [h]
CCN(CC)CCNC(=O)c1cc(S(C)(=O)=O)ccc1OC		human liver microsomes	2 µM, pH 7.4, approximate	~105
O=C(Nc1cnccc1Cl)N1CCN(Cc2ccc3c(c2)OC(F)(F)O3)CC1		healthy young men, plasma	oral, 75 mg once daily, day 10	14.1
CC(C)[N+](C)(CCOC(=O)C1c2ccccc2Oc2ccccc21)C(C)C		human plasma	plasma stability	0.35
C[C@H]1CN(C(=O)CC#N)[C@]12CCN(c1ncnc3[nH]ccc13)C2		healthy adults, plasma	oral, 1.5 mg single dose, mean	2.2
COc1cnc(NS(=O)(=O)c2ccc(N)cc2)nc1		human liver microsomes	2 µM, pH 7.4, approximate	~126
C[C@@H](N)C1CCN(S(=O)(=O)c2cccc3cnccc23)CC1		healthy volunteers, fasted, plasma	oral, 150 mg	1.26
CCc1nc(C(N)=O)c(Nc2ccc(N3CCC(N4CCN(C)CC4)CC3)c(OC)c2)nc1NC1CCOCC1	LC-MS/MS	relapsed/refractory AML patients, plasma	oral, 300 mg once daily, cycle 1 day 15, median, from accumulation ratio	159
C(/NC1CCCCC1)=C1/N=C(c2ccc[nH]2)C2=C1CCCC2		pooled human liver microsomes	1 µM, pH 7.4	0.445
C[C@@H](NC(=O)N1C(=O)[C@H](Cc2ccnc(N)c2)[C@H]1C(=O)O)C1CCCCC1	UPLC-MS/MS	healthy adult Chinese volunteers, plasma	continuous intravenous infusion, 2.25 mg/kg/h, day 6 of 5-day infusion, mean	1.39

Repeated from above:
SMILES	test	test system	conditions	t1/2 [h]
CCN(CC)CCNC(=O)c1cc(S(C)(=O)=O)ccc1OC		human liver microsomes	2 µM, pH 7.4, approximate	~105
